Measurements of several laboratories.
Numbered parts are unrelated; each lists some results of a single study. Substitutions count along the parent as printed.

Set 1
Target: Sox-I, HMG box (Salpingoeca helianthica)
Technique: Spec-seq
Form: double-stranded DNA, one strand shown
Matrix: in vitro
Concentration: not given
Setting: whole probe, mean of replicates
Reference: not given
Direction: lower = stronger binding
Shared flanks, not repeated: GAGTCGTCTCGTCAGCAC … CCGTAGAGCACTCAGGTC
Residues (chain): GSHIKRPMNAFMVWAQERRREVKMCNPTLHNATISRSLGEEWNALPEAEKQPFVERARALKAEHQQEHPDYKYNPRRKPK
| Strand | relative binding energy |
| --- | --- |
| CATGCAT | 0.878 ln ratio |
| CATGCTA | 0.569 ln ratio |
| TTACGTT | 0.872 ln ratio |
| AATGGTT | -2.52 ln ratio |
| CATGGAC | 0.944 ln ratio |
| CATAGGA | 0.162 ln ratio |
| ACTTGTT | -0.997 ln ratio |
| CATGGAG | 0.95 ln ratio |

Set 2
Target: Histone acetyltransferase KAT6A, winged helix 2, GST fusion (KAT6A, Homo sapiens, UniProt Q92794, residues 85-181)
Technique: protein binding microarray
Form: double-stranded DNA, one strand shown
Matrix: in vitro
Concentration: not given
Setting: 8-mer, flanks averaged, mean of 2 arrays, mostly near background
Reference: not given
Direction: higher = stronger binding
Target sequence (chain): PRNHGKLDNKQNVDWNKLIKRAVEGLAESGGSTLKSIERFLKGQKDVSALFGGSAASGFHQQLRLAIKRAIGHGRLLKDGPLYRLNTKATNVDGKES
| Strand | E-score |
| --- | --- |
| ATATACAA | 0.0673 |
| TAGTAACA | 0.065 |
| GTCCCCAA | 0.07 |
| TCGCGTCA | 0.0799 |
| AAGAATCC | -0.0349 |
| AGCTCGGC | 0.053 |
| CTGTGAAC | 0.0242 |
| CATTTTAA | 0.0481 |

Set 3
Organism: Saccharomyces cerevisiae
Observed: binding
Technique: yeast competitive growth sequencing
Form: peptide
Strain: cyclin D1-Cln2 strain
Matrix: peptide tiling library
Direction: direction not given
| Sequence | enrichment score |
| --- | --- |
| HRRRLLFACSPPPASQ | -1.59 |
| DSDSDSEGGAAGGEAD | 2.33 |
| TLPYDLACTGGDFVLF | 2.59 |
| DSGFCLDSPGPLDSKE | 2.3 |
| RRRRLLFWDKETQI | -2.34 |
| LFVPQRKLEVSTEDVH | -0.701 |
| NCKKRRALDFLSRLPL | -1.85 |
| FREFEVEKQTAEETGL | 1.3 |

Single results of other studies
Parent: PafA, mature enzyme, eGFP fusion (Elizabethkingia meningoseptica, UniProt Q9KJX5); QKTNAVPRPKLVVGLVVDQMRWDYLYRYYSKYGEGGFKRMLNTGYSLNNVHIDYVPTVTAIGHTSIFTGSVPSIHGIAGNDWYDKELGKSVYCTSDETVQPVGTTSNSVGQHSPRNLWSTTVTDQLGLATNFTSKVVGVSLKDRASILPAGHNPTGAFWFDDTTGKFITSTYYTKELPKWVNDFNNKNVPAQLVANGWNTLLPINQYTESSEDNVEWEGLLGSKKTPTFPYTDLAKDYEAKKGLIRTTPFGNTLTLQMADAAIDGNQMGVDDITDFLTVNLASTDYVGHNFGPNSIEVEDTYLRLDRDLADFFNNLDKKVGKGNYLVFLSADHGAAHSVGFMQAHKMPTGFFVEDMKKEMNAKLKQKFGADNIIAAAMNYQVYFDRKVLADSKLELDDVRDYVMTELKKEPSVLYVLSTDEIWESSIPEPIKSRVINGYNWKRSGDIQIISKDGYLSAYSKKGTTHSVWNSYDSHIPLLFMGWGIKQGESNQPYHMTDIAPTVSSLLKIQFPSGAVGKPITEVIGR
| Substitution | target | assay | test system | setting | how to read | endpoint | value |
| --- | --- | --- | --- | --- | --- | --- | --- |
| K10G | tungstate, free oxyanion | microfluidic competitive inhibition | in vitro, cell-free expressed | not given, derived from inhibition constants, unchanged parent 2230 nM | lower = stronger binding | oxyanion analog dissociation constant | 2.03 µM |

Some of these lines once more (set 3):
| Sequence | enrichment score |
| --- | --- |
| DSDSDSEGGAAGGEAD | 2.33 |
| TLPYDLACTGGDFVLF | 2.59 |
| DSGFCLDSPGPLDSKE | 2.3 |
